Measured values pooled from the literature.
Each line is one published result; not all experiments were run side by side. Values joined by “and” are separate records of one study, mostly repeats; a detail may differ. ± marks the error that the study gave.

For `O=C(Nc1nc2cccc(-c3ccc(CN4CCS(=O)(=O)CC4)cc3)n2n1)C1CC1`, “treatment-emergent adverse events” read 0% (refers to: constipation; human rheumatoid arthritis patients; oral, 75 mg once daily, 4 weeks, regardless of relatedness).
`O=C(/C=C/c1cccc(S(=O)(=O)Nc2ccccc2)c1)NO` gave a Vss of 20.3 L/m² (human patients, plasma; 2000 mg/m^2).
`CN(CCCN1CCN(C(=O)CN2CCN(CC(=O)[O-])CCN(CC(=O)[O-])CCN(CC(=O)[O-])CC2)CC1)c1ccc2nccc(C(=O)NCC(=O)N3CC(F)(F)C[C@H]3C#N)c2c1.[68Ga+3]` gave a tumour uptake of 1.3 %IA/g (mouse, HT-1080.hFAP/HT-1080.wt xenograft, HT-1080.hFAP tumour; iv, 500 pmol, 4 h).
`FC(F)(F)c1ccc(CNc2ccc(Cc3c[nH]c4ncc(Cl)cc34)cn2)cn1` — result for “treatment-related adverse events”: 0% (refers to: Arthralgia; patients with advanced solid tumours, non-TGCT cohort; oral, 1000 mg/day, any grade).
Under serum biochemistry, `COc1nc(-c2cccc(-c3ccccc3)c2C)ccc1CNCCNC(=O)CCCCCCCCCCC(=O)N1CCN(CCNC(=O)c2cc3c(=O)n4cccc(C)c4nc3n(CCc3cccs3)c2=N)CC1` is recorded as “no effect” (refers to: BUN, creatinine, GGT, ALT, total bilirubin; mice, serum; concentration not given; reference: control group).
The concentration of `CN(C(=O)n1cnc(-c2cccnc2)c1)[C@H]1CC[C@H](O)CC1` is reported as 35.5 ± 8.6 ng/g (Wistar rat, midbrain; oral, 10 mg/kg of BIA 10-2474, 4 h, single dose).
Under “cumulative fecal excretion”, `CC(C(=O)NCC(=O)NCC(CNC(=O)CNC(=O)C(C)N1CCN(CC(=O)[O-])CCN(CC(=O)[O-])CCN(CC(=O)[O-])CC1)(CNC(=O)CNC(=O)C(C)N1CCN(CC(=O)[O-])CCN(CC(=O)[O-])CCN(CC(=O)[O-])CC1)CNC(=O)CNC(=O)C(C)N1CCN(CC(=O)[O-])CCN(CC(=O)[O-])CCN(CC(=O)[O-])CC1)N1CCN(CC(=O)[O-])CCN(CC(=O)[O-])CCN(CC(=O)[O-])CC1.[Gd+3].[Gd+3].[Gd+3].[Gd+3]` (stereo not drawn) is recorded as 0.4% (ICP-MS; cynomolgus monkey, feces; 5 days post-injection; reference: dose).
`CC(C)(C(=O)N1CCOc2c(C#N)cncc2C1)C(F)F` — result for “subjects with TEAE”: 0% (refers to: cutaneous vasculitis; human, both sexes; oral, 20 mg once daily, 14 days, multiple ascending dose).
`O=C(Nc1cnccc1Cl)N1CCN(Cc2ccc3c(c2)OC(F)(F)O3)CC1` has a renal clearance of 0.00807 L/h (healthy young men, urine; oral, 75 mg once daily, day 10).
The renal clearance of `CO[C@H]1CC[C@H](N2C(=O)CNc3ncc(-c4ccc(C(C)(C)O)nc4)nc32)CC1` is reported as 0.05 L/h (patients, urine; oral, 45 mg, day -1, geometric mean).
The SUV of `[18F]c1ccc(-c2ccc3c(c2)[nH]c2ccncc23)cn1` is reported as 0.326 ± 0.041 (ex vivo biodistribution; APP/PS1 mouse, AD model, thalamus; intravenous, 30 min).
`CCN1CCN(Cc2ccc(NC(=O)c3ccc(C)c(NC(=O)c4cncc(-c5cccs5)c4)c3)cc2C(F)(F)F)CC1`: “mean plasma concentration” 488 ng/mL (LC-MS/MS; C57BL/6 mouse, plasma; intraperitoneal, 10 mg/kg single dose, 0.5 h).
`CCc1cc(C(=O)NC)c2nccc(N3CCc4c(cc(Cn5ccnc5)cc4-c4cn(C)nc4C(F)(F)F)C3=O)c2c1` — result for “serum AST change”: 4.8% (Sprague Dawley rats; oral, 100 mg/kg once daily, 7 days; reference: vehicle).
`Cc1cccc(CNC(=O)c2cn(CCNC(=O)c3ccccc3S)c3cc4c(cc3c2=O)OC(F)(F)O4)n1` has an AUC(0-t) of 2310 ± 964 ng·h/mL (Sprague-Dawley rat, male, whole blood; intramuscular, 3 mg/kg of parent compound).
`OCc1nc2ccc(NCc3ccc(C(F)(F)F)cc3)cc2[nH]1` has a tissue/plasma ratio of 2 ± 0.3 (Balb/c mouse, male, heart; intravenous, 1 mg/kg, 6 h; reference: tissue over plasma).
Under “participants with epistaxis”, `C[C@@H](N)C1CCN(S(=O)(=O)c2cccc3cnccc23)CC1` is recorded as 0% (healthy volunteers; 25 mg, fasted).
With `O=C([O-])CN1CCN(CC(=O)[O-])CCN([C@H](CO)[C@H](O)CO)CCN(CC(=O)[O-])CC1.[Gd+3]` (racemic) the dissociation rate was 0.008 %/day (LC-ICP-MS; human plasma; pH 7.4, 37 °C).
With `CCN1CCN(C(=O)c2ccc(-n3nc(-c4cccnc4)c4c3-c3sc(NC(C)=O)nc3CC4)cc2)CC1` the body weight was 15.5 g and 19.2 g and 19.3 g and 18.4 g (NSG mice; dose not given, day 3).

Some of these lines once more:
For `O=C(Nc1nc2cccc(-c3ccc(CN4CCS(=O)(=O)CC4)cc3)n2n1)C1CC1`, “treatment-emergent adverse events” read 0% (refers to: constipation; human rheumatoid arthritis patients; oral, 75 mg once daily, 4 weeks, regardless of relatedness).
`O=C(/C=C/c1cccc(S(=O)(=O)Nc2ccccc2)c1)NO` gave a Vss of 20.3 L/m² (human patients, plasma; 2000 mg/m^2).
